Assay results from different studies.
A part holds a random share of what one study measured. Substitutions count along the parent as printed.

Series 1
Target: RNA binding protein fox-1 homolog 2, RRM domain, GST-SBP tag (RBFOX2, Homo sapiens, UniProt O43251-10, residues 100-194)
Technique: RNA Bind-n-Seq
Form: RNA
Matrix: in vitro
Tested at: 365 nM
Setting: natural RNA segment, single round, ends assumed
Reference: no-protein control
Direction: higher = stronger binding
All sequences stand within: GGGAGUUCUACAGUCCGACGAUC … UGGAAUUCUCGGGUGCCAA
Construct (chain): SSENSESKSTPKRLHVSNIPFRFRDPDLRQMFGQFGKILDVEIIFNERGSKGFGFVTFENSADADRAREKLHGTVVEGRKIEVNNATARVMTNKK
| Oligonucleotide | RBNS enrichment (R) |
| --- | --- |
| AAGCCUUAUUUUUAAAAUCCCCCAUUCUUGCUCAGAUUAAAAAUUGCCAAAAUACCUUCUGAACUAAGUUGCGUUGUGCUGAGAACACCUAAGCACUAAACUCUCUUGAG | 0.62 |
| ACUCCAGGGAAACCUGAAAGCAAGAAGUUAAUGGACUGUUUAUUGUAACUUGAUCCUCCCGAGCUGUGAGCGCAGUCUGAGGUGUGAGGACACGGCCUCCUGUUGGAGUC | 0.251 |
| UAACUGAUCCUUUCUUCCACUUUGCUGUUGAUUUGUUCACAAAUUAUGUCUGAAUGAGAAAUCUUCUGUAAGCAGAAGUUAUUUAAUAAUUCCCAGCACCACGAAAUUGU | 0.305 |
| UGCCUCGGCUGCGACGUGUCCAGGCGUGGAGAGUUUUGUGUUUCUCCUGUUCAGUAUCCGAGUCUCGUGCAGUGCUGCGUAGGUUAGCCCGCAUCGUGCAGACAACCUCA | 0.961 |
| CCCACAUCCUCUUGGGGACUCAGAGCACUCCUCUCCUUCCACUCCCAAAGACACGGGUAUUCCAGACCCGGUCUGCCUCCCUACCAGCCUUCUUAGGCUCUGUCGUGUGA | 0.439 |
| CAUUUAAAACCCAGCUGUUUAGCAAGGAGUGUUGGCUCACACCUACAAUCCCAGCAUUUGGGAAGCUGAGGCAAGCAGAUUACCACAAGUUUGAAACCAACCUUGGCUGC | 0.301 |
| CCAGCUCAAGUGCCGCCCCCUCACCGCCAAUUCUCAACUGGUUGCCGUGUACACUGAUUACAUUUCAGGAGGACGUGUUCUAUUUAUGUUGUGCCUCUGCAGGCAAAGCC | 0.562 |
| UGGAAUGAUGUAAGCAAAUGCUUUUGGUUACUGGUACAUGUGUUUUUUCCUAGCUGACCUUUUAUAUUGCUAAAUCUGAAAUAAAAUAACUUUCCUUCCACAUUACAUGU | 1.09 |

Series 2
Target: Prothrombin, mature alpha-thrombin (F2, Homo sapiens, UniProt P00734)
Technique: aptamer microarray, sandwich
Form: DNA with 2'F-ANA
Matrix: in vitro
Tested at: 200 nM
Setting: whole 15-mer aptamer, many near background
Added: Cy3 exosite-II aptamer, 400 nM
Direction: higher = stronger binding
Oligonucleotide: GGTTGGTGTGGTTGG
| Modification | mean fluorescence intensity [a.u.] |
| --- | --- |
| 2'F-ANA at 3 4 10 11 14 15 | 198 |
| 2'F-ANA at 8 9 11 13 15 | 415 |
| 2'F-ANA at 1 4 6 8 10 12 | 56.8 |
| 2'F-ANA at 2 3 4 6 10 11 12 13 14 | 145 |
| 2'F-ANA at 1 4 5 7 8 9 11 13 | 47.7 |
| 2'F-ANA at 1 4 5 6 7 8 10 11 14 | 46.1 |
| 2'F-ANA at 2 3 5 7 11 13 14 15 | 48.9 |
| 2'F-ANA at 4 5 6 7 11 12 14 15 | 73.2 |
| 2'F-ANA at 3 4 6 8 9 10 12 14 15 | 183 |
| 2'F-ANA at 1 2 4 5 6 8 13 14 | 48.7 |
| 2'F-ANA at 1 2 4 5 6 8 10 12 14 | 68.9 |
| 2'F-ANA at 1 2 3 4 6 8 9 10 12 13 15 | 65.7 |
| 2'F-ANA at 1 2 3 7 9 11 13 14 | 59.9 |
| 2'F-ANA at 1 2 3 5 7 8 11 12 14 | 57.4 |
| 2'F-ANA at 2 10 13 15 | 115 |
| 2'F-ANA at 1 3 4 7 11 12 14 | 92 |
| 2'F-ANA at 2 3 4 5 7 9 12 13 14 15 | 51.6 |
| 2'F-ANA at 3 4 5 7 9 12 15 | 208 |
| 2'F-ANA at 1 2 3 5 6 8 9 11 14 15 | 47.7 |
| 2'F-ANA at 3 4 7 11 14 15 | 478 |
| 2'F-ANA at 1 2 4 7 8 13 14 15 | 57.3 |
| 2'F-ANA at 4 5 6 13 14 | 44.7 |
| 2'F-ANA at 3 5 12 13 | 208 |

Series 3
Target: CCNE2, cyclin fold, Cln2 fusion (human)
Technique: yeast growth competition, sequencing
Matrix: yeast
Setting: strong parent motif
Reference: not given
Direction: higher = stronger binding
Starting sequence: CDKN1B docking peptide (human); PSACRNLFGPVDH
| Substitution | normalised enrichment score |
| --- | --- |
| PSACPNLFGPVDH [R5P] | -0.379 |
| PSACRNLFGPVIH [D12I] | 0.808 |
| PPACRNLFGPVDH [S2P] | 0.905 |
| PSAFRNLFGPVDH [C4F] | 0.815 |
| PSACRNLFGPVDS [H13S] | 1.52 |
| PSACRNLFGPVDW [H13W] | 4.28 |
| PKACRNLFGPVDH [S2K] | 1.5 |
| PVACRNLFGPVDH [S2V] | 0.867 |
| PSACRNLFGTVDH [P10T] | 1.85 |
| PSACRNLFGPVDV [H13V] | 0.965 |
| PSACRNLFIPVDH [G9I] | 0.809 |
| PAACRNLFGPVDH [S2A] | 1.1 |
| PSMCRNLFGPVDH [A3M] | 0.881 |
| PSAARNLFGPVDH [C4A] | 0.717 |
| PSACRNLFHPVDH [G9H] | 0.73 |
| PCACRNLFGPVDH [S2C] | 0.624 |
| PSACRNLFGPVEH [D12E] | 1.04 |
| PSFCRNLFGPVDH [A3F] | 1.65 |
| PSAIRNLFGPVDH [C4I] | 0.894 |
| PSACTNLFGPVDH [R5T] | -0.322 |
| PQACRNLFGPVDH [S2Q] | 0.65 |
| PSACRNLQGPVDH [F8Q] | 0.3 |
| PSACKNLFGPVDH [R5K] | 0.394 |
| PSACRNLKGPVDH [F8K] | 0.112 |

Series 4
Target: Ras GTPase-activating protein-binding protein 1, C-terminal RGG region (G3BP1, Homo sapiens, UniProt Q13283)
UniProt Q13283, sequence (whole entry, looked up): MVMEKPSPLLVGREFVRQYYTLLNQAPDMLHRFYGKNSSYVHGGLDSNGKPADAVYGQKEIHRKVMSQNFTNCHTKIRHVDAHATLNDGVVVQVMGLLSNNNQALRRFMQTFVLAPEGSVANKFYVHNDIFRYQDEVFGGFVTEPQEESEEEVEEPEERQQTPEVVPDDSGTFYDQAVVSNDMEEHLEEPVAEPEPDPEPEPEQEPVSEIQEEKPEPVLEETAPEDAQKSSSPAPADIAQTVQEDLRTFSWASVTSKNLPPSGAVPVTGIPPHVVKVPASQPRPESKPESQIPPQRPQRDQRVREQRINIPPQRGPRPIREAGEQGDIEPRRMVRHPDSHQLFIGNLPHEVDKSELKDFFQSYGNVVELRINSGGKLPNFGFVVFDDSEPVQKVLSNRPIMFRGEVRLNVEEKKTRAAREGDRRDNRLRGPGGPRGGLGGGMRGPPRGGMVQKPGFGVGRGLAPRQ
Technique: RNA Bind-n-Seq
Form: RNA
Matrix: in vitro
Tested at: 1 µM
Setting: whole 134-nt RNA, ends assumed
Added: 150 mM KCl
Reference: input library
Direction: higher = stronger binding
All sequences stand within: GGGAGUUCUACAGUCCGACGAUC … UGGAAUUCUCGGGUGUCAAGG
| Oligonucleotide | log2 enrichment |
| --- | --- |
| CACAGACAACACGCACCCACAAAGACACAGAGGGAAGGGGUUGGGAUGGGGACAGGGUGCACAGCAGGGCGGGGUAGGACCCCAGCCCCU | -0.227 |
| GUCCUGUGCUACACAUCGUAUGUACCGAAUCGGGGUUUUUUUGGGGAGGGGAAAGGGGAAAGUAUUAUGUUACGCCGUUCGGAUCUGCAC | 2.56 |
| UUCCUCAAGUCCUGUGCUACACAUCGUAUGUACCGAAUCGGCGGCGGCGGAAAGUAUUAUGUUACGCCGUUCGGAUCUGCACUUCCAGCA | -0.642 |
| UCCUGUGCUACACAUCGUAUGUACCGAAUCGGGUUUUUUUGGGAAAAAAAGGGUUUGGGAAAGUAUUAUGUUACGCCGUUCGGAUCUGCA | -0.918 |
| UUCACCAGUUUCACUGUGAGCCUCAACGAGCUGGAGACAGGCAUGGAGAAGACCCUGCCACCCACGGACUGCCGCCUGCGCCCUGACAUC | -0.573 |
| AGUCCUGUGCUACACAUCGUAUGUACCGAAUCGGGUUUUUUUGGGUGGGUUUUUGGGAAAGUAUUAUGUUACGCCGUUCGGAUCUGCACU | 1.16 |
| UCCUGUGCUACACAUCGUAUGUACCGAAUCGGGGAAAAAAAGGGGUUUGGGGUUUGGGGAAAGUAUUAUGUUACGCCGUUCGGAUCUGCA | 2.78 |
| UCCUGUGCUACACAUCGUAUGUACCGAAUCGGGGAAAAAAGGGAAAAAAGGAAAAAAGGGAAAGUAUUAUGUUACGCCGUUCGGAUCUGC | -0.994 |
| UGGUGGACAGAAGGCACUGCAGCCUGAAAUGGCAGAGUCUGGUGCUGACGAUCCGCGAGAAGAUCAAUGCUGCCAUCCAGGACAUGCCAG | -1.91 |

Other studies, line by line
| Oligonucleotide | target | assay | system | endpoint | value |
| --- | --- | --- | --- | --- | --- |
| GGAGTGCGCACTCC (dsDNA) | KAT6A 1-85 (Homo sapiens, UniProt Q92794) | X-ray crystallography | double-stranded DNA, one strand shown | binding | binds |

Some of these lines once more (series 3):
| Substitution | normalised enrichment score |
| --- | --- |
| PVACRNLFGPVDH [S2V] | 0.867 |
| PSACRNLFGTVDH [P10T] | 1.85 |
| PSACRNLFGPVDV [H13V] | 0.965 |
